Measured values from different studies.
Each line is one published result; not all experiments were run side by side. pIC50: −log10 of the molar value.
Cell line: MCF7

Structure (SMILES)	assay	conditions	pIC50
c1ccc(-c2cc(-c3ccc4ccccc4n3)c3c4nncn4c4nncn4c3n2)cc1	cell growth or viability, MTT	48 h	5.11
C[C@H]1O[C@@H](O[C@H]2CC[C@@]3(C)[C@H](CC[C@@H]4[C@@H]3C[C@@H](O)[C@]3(C)[C@@H](C5=CC(=O)OC5)[C@@H](O)C[C@]43O)C2)C[C@H](O)[C@@H]1O	cell growth or viability, MTT	48 h	5.94
Cc1nn(-c2ccccc2)c(O)c1C(c1cccs1)c1c(C)nn(-c2ccccc2)c1O	cell growth or viability, MTT	48 h	4.55
CC(C)=CCC[C@@](C)(O)[C@H]1CC[C@]2(C)[C@@H]1CC[C@@H]1[C@@]3(C)CCC(=O)C(C)(C)[C@@H]3CC[C@]12C	cell growth or viability, SRB		4.53
C=CC[P](c1ccccc1)(c1ccccc1)[Pt]([S]c1ncccn1)([S]c1ncccn1)[P](CC=C)(c1ccccc1)c1ccccc1	cell growth or viability, MTT		4.81
CC[C@H](C)[C@H](NC(=O)[C@H](CCCCN)NC(=O)[C@H](CCCCN)NC(=O)[C@H](C)NC(=O)[C@H](CC(C)C)NC(=O)[C@H](C)NC(=O)[C@H](C)NC(=O)[C@H](CC(C)C)NC(=O)[C@H](C)NC(=O)[C@H](CCCCN)NC(=O)[C@H](CC(C)C)NC(=O)[C@H](CC(N)=O)NC(=O)[C@@H](NC(=O)[C@H](CCCCN)NC(=O)CNC(=O)[C@H](CC(C)C)NC(=O)[C@H](CC(C)C)NC(=O)[C@H](Cc1ccc(O)cc1)NC(=O)CNC(=O)[C@H](C)NC(=O)[C@H](CO)NC(=O)[C@H](CC(N)=O)NC(=O)[C@H](CC(C)C)NC(=O)[C@@H](NC(=O)[C@H](Cc1c[nH]c2ccccc12)NC(=O)CN)[C@@H](C)O)[C@@H](C)CC)C(=O)N[C@@H](CC(C)C)C(N)=O	cytotoxicity		5.85
C=C(CO)[C@H]1Cc2c(ccc3c2O[C@@H]2COc4cc(OC)c(OC)cc4[C@]2(O)C3=O)O1	cell growth or viability, MTT	72 h	4.48
Cc1cc(C)c(-n2ccn(-c3c(C)cc(C)cc3C)c2=[Se])c(C)c1.[Cl][Ag]	cell growth or viability, MTT	72 h	5.55
CC[C@H](C)[C@H](NC(=O)[C@@H](N)Cc1ccc(O)cc1)C(=O)N[C@@H](Cc1ccccc1)C(=O)N[C@@H](CC(N)=O)C(=O)N[C@@H](CC(C)C)C(=O)O	cell proliferation, tetrazolium		9.82
CN(C)CC1C(=O)OC2C1CCC1(C)CC1CCC1(C)OC21 (centres unmarked)	cell growth or viability, resazurin		4.77
[N-]=[N+]=NCCN1C(=O)c2cccc3cccc(c23)C1=O	cell growth or viability, MTT	24 h	< 4.00

Some of these lines once more:
Structure (SMILES)	assay	conditions	pIC50
C=C(CO)[C@H]1Cc2c(ccc3c2O[C@@H]2COc4cc(OC)c(OC)cc4[C@]2(O)C3=O)O1	cell growth or viability, MTT	72 h	4.48
